Assay results collected from several papers.
Parts stem from different laboratories: compare values within a part only.
Sequence of UniProt P46734 (whole entry, looked up): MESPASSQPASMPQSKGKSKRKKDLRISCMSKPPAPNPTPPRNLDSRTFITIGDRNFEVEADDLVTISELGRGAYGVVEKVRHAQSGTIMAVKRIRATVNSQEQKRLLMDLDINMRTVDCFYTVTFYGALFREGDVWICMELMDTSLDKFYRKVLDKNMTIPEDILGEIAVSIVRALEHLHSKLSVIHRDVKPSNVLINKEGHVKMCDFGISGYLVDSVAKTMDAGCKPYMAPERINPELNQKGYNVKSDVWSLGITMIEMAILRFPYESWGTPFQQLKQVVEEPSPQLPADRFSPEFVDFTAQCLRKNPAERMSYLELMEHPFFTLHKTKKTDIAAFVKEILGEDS
Sequence of UniProt P54764 (whole entry, looked up): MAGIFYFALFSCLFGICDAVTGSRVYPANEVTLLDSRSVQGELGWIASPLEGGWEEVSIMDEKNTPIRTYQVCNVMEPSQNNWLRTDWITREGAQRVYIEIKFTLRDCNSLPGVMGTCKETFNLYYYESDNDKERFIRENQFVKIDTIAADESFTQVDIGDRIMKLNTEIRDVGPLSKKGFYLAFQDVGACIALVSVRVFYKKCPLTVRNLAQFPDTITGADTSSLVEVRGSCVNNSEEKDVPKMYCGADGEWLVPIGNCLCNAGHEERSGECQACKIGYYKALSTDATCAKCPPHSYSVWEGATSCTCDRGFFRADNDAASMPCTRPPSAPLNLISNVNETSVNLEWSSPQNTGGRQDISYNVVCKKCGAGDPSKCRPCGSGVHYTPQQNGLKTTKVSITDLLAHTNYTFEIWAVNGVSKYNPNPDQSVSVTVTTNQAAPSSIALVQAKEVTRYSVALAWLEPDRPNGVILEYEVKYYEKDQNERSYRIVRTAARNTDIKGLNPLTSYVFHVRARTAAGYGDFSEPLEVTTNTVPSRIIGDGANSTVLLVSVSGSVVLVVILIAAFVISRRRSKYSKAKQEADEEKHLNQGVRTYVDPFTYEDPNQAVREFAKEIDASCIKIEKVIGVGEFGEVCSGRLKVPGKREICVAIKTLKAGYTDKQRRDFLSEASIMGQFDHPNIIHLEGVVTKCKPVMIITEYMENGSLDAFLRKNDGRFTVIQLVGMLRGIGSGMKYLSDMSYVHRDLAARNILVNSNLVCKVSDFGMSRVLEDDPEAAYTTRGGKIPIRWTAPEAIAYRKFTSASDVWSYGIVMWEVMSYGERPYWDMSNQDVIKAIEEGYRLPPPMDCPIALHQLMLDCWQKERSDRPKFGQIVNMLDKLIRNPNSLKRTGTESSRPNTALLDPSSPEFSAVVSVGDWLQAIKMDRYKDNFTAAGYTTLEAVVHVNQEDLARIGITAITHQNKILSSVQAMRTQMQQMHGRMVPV
Sequence of UniProt Q92918 (whole entry, looked up): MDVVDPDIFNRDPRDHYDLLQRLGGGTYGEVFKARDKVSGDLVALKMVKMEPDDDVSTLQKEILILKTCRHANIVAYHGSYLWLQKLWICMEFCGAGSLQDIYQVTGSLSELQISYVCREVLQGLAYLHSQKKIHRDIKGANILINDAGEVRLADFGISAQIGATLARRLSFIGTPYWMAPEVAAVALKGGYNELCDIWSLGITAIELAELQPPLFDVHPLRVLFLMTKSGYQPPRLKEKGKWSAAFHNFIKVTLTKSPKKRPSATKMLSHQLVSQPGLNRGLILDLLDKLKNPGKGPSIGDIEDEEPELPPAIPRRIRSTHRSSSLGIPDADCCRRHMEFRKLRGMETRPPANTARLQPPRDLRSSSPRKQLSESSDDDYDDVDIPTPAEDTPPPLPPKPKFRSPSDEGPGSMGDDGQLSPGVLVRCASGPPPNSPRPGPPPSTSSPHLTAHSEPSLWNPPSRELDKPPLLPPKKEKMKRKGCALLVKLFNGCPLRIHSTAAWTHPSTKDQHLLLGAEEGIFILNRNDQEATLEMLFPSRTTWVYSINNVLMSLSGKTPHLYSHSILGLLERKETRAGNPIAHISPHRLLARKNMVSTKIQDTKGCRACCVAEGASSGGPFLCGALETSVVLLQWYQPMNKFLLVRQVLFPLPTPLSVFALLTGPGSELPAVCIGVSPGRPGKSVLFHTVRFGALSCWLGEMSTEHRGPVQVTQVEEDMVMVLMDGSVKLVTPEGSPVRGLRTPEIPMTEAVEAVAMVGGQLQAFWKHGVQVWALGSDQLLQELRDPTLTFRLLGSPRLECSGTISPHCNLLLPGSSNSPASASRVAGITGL
Sequence of UniProt Q9H3Y6 (whole entry, looked up): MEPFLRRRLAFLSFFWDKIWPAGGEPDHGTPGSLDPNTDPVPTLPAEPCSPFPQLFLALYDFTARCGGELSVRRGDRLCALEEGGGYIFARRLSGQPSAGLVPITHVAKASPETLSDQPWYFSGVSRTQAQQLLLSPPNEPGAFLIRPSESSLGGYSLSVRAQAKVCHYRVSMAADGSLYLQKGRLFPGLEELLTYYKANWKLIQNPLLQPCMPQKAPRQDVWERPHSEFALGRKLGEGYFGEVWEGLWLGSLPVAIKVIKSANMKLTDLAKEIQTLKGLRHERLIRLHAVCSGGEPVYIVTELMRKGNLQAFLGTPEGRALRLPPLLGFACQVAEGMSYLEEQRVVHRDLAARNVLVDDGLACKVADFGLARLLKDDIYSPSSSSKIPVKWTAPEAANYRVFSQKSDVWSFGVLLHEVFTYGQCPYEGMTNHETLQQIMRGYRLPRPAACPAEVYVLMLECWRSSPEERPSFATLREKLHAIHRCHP
Sequence of UniProt Q15208 (whole entry, looked up): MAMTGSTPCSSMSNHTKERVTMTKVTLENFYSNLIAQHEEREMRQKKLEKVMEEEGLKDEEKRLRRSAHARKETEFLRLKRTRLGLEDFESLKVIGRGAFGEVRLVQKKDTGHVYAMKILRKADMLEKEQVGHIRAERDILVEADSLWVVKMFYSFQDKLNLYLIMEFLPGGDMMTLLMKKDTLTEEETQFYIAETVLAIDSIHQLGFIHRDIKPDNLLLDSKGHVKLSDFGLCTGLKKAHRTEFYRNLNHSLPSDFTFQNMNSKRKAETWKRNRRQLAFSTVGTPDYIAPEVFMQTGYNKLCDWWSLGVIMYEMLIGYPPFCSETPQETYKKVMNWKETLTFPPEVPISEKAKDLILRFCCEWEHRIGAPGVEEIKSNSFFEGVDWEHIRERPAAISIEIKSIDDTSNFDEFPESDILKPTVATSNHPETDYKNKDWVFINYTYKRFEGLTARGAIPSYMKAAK

Study 1
Target: Mitogen-activated protein kinase kinase kinase kinase 5 (MAP4K5, Homo sapiens, UniProt Q9Y4K4)
Sequence of UniProt Q9Y4K4 (whole entry, looked up): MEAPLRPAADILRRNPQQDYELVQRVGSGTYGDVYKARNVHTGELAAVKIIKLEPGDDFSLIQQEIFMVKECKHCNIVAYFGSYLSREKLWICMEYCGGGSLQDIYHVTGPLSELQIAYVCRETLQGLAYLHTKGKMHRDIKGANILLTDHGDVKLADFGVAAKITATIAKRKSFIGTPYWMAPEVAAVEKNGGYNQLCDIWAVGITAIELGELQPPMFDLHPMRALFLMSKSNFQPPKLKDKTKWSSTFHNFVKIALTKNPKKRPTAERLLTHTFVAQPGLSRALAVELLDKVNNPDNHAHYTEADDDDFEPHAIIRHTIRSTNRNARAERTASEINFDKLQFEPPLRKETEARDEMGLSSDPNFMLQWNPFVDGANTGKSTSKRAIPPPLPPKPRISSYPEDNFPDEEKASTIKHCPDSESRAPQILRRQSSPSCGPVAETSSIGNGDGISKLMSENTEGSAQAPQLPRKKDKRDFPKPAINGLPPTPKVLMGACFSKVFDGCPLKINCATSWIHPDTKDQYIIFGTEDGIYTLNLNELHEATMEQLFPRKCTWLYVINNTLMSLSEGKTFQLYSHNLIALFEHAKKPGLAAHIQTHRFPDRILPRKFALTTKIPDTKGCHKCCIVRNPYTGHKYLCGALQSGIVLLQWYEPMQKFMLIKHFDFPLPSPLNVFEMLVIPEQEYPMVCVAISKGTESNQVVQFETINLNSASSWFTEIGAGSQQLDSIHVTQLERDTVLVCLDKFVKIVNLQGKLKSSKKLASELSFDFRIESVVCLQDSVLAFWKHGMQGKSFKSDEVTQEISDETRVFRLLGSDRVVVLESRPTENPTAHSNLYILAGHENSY
Read-out: enzyme activity
Mode: inhibitor
Tested at: 0.5 µM
Baseline: control
Compound	remaining activity
COc1ccc(OC)c2c(=S)c3ccccc3[nH]c12	95.2%
COc1cc2ncnc(Nc3ccc(Oc4ccccc4)cc3)c2cc1OC	70.6%
C#Cc1cccc(Nc2ncnc3cc(OCCOC)c(OCCOC)cc23)c1	95.6%
Cn1c2ccccc2c2c3c(c4c5ccccc5n(CCC#N)c4c21)CNC3=O	4.18%
CN(C)c1ccc(C=C2C(=O)Nc3ccccc32)cc1	84.5%
CCOC(=O)c1c(C)[nH]c(/C=C2\C(=O)Nc3ccccc32)c1C	84.3%
O=C(O)c1ccc2c3c1cccc3c(=O)n1c3ccccc3nc21	47%
Oc1ccc(-c2nc(-c3ccncc3)c(-c3ccc(F)cc3)[nH]2)cc1	96.6%
COc1cc2ncnc(Nc3ccc(F)c(Cl)c3)c2cc1OCCCN1CCOCC1	80%
O=C1NC(=O)C(c2cn(CCCn3ccnc3)c3ccccc23)=C1Nc1ccccc1	66.5%
O=C1NC(=O)C(c2cn(CCCO)c3ncccc23)=C1c1cnccn1	37.5%
Cc1ccc(Nc2nccc(N(C)c3ccc4c(C)n(C)nc4c3)n2)cc1S(N)(=O)=O	30.3%
NCCNc1ncc(C(N)=O)c(Nc2cccc(C(F)(F)F)c2)n1	65.1%
OCC(O)CCON=C1C(c2c(O)[nH]c3ccccc23)=Nc2ccccc21 (stereo not shown)	15.5%
Cn1sc(=O)n(Cc2ccccc2)c1=O	107%

Study 2
Target: Prothrombin, mature alpha-thrombin (F2, Homo sapiens, UniProt P00734)
Technique: aptamer microarray, sandwich
Form: DNA with 2'F-ANA
Sample: in vitro
Tested at: 200 nM
Notes: whole 15-mer aptamer, many near background
With: Cy3 exosite-II aptamer, 400 nM
Reading: higher = stronger binding
Strand: GGTTGGTGTGGTTGG
Modification	mean fluorescence intensity
2'F-ANA at 3 4 8 9 11 14	282 a.u.
2'F-ANA at 1 4 6 9 10 11 12 14	73.3 a.u.
2'F-ANA at 1 4 5 6 7 8 10 12 13 15	50.9 a.u.
2'F-ANA at 5 9 10 12 14 15	45.9 a.u.
2'F-ANA at 3 7 9 12 13 14	653 a.u.
2'F-ANA at 5 11 13 15	54.9 a.u.
2'F-ANA at 1 2 3 5 8 12 13	102 a.u.
2'F-ANA at 2 3 10 11 12 13 15	419 a.u.

Study 3
Target: RNA binding protein fox-1 homolog 2, RRM domain, GST-SBP tag (RBFOX2, Homo sapiens, UniProt O43251-10, residues 100-194)
Technique: RNA Bind-n-Seq
Form: RNA
Sample: in vitro
Tested at: 365 nM
Notes: natural RNA segment, single round, ends assumed
Baseline: no-protein control
Reading: higher = stronger binding
Shared flanks, not repeated: GGGAGUUCUACAGUCCGACGAUC … UGGAAUUCUCGGGUGCCAA
Construct (chain): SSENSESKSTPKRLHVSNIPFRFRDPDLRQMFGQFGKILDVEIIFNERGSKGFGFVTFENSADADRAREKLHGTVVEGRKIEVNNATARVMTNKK
Strand	RBNS enrichment (R)
UGACUUAGGAGUGAUGUGGCUAACUGAGGCCUGAGUGAGUGUGUAGAUUGUCCUUGGGUGAGUGAGAAAAAACACUUUGCAUUGCUUUCAGGUUGGUGGAAAAUGUCAGU	1.63
AAGACCGGAGCCCCGCAGGAGUGGGGAGGAAUGGGAGGAGUGUGUACGCUUGGGGGCUGGGAUGCCGUGUACACACGCACAAGUACACAUCGCGCUCAGGACUUCACUGA	0.952
GAGGUCCACUCGUGACCUAGGCCGCCCCACUCCCAUCCACCGAGAGUCAAGUGAUGACACGACACACUUGAAACCCUGGCAAGUGGCUGCAAGGUGAGGAUUGGACUCGU	0.3
AGGGCCACUUGAAAGCAUGAAGACCAGUUAUAUAGGGAACAGGUUUCUCUCAGUGGCACAUUUUGCUUUUUCUGAGCCCCAAAUACAUUGCCUGGGCAUGAACAUUGUUA	0.93
GCUCUUUUAAGUGAAUUUUCAAAUGAAAUGAACUAUGCUUAUUGCUGGCACAUUGAUCCCAUUUCUGGAACAUUUCCUACUUCCAGAAUUCCGUAUGUUCCUUAGACAUU	0.222
GUGAGCUCUUCUCUGUCGCCCUGAAGGGUCACUGUAUUCUGUAUGAAUGCAUGGCAUGAUACAACUAAUUUAAGAGUCUUUUAUAAAUAAAGUUUGCAUUAACUAUACCU	9.61
UAGAACAUCAGGAUGUUCUUGUAUUGGAUAUAGUAUCUAGUAUUCAAAAAUGCCUGCAUCUCUUAUUUAUUGUAAGUUUUUAAAUGUAUAAAUUGUCUUAUAUUUCUUAA	0.851
GGAUACAAGAUGCUGAGAGGGCUGCAGGGCCAUUCCAUCAAGCCCCAGGGUGAAAGGGCUGGCAUGGCAUCGCUCAUUUUAUUGCUCUGCAGGUAAACUGUAUAGGUAUA	0.516

Study 4
Structure (SMILES): Cn1cc(Cl)c2c(Oc3c(F)cc(Nc4cc(Cl)nc(N)n4)cc3F)ccnc21
Read-out: cell-free assay
Technique: competition with immobilised ligand
Tested at: 0.1 µM
target	remaining binding [%]
STK38 (Homo sapiens, UniProt Q15208)	87
STK24 (Homo sapiens, UniProt Q9Y6E0)	100
FLT3 (Homo sapiens, UniProt P36888, F691L/ITD)	61
CAMK2D (Homo sapiens, UniProt Q13557)	95
GAK (Homo sapiens, UniProt O14976)	100
ERBB3 (Homo sapiens, UniProt P21860)	75
EPHA4 (Homo sapiens, UniProt P54764)	100
MAP4K1 (Homo sapiens, UniProt Q92918)	82
SRMS (Homo sapiens, UniProt Q9H3Y6)	100
MYLK (Homo sapiens, UniProt Q15746)	95
Tyrosine-protein kinase ABL1, non-phosphorylated (ABL1, Homo sapiens, UniProt P00519, T315I)	84
GRK3 (Homo sapiens, UniProt P35626)	83
PRKACA (Homo sapiens, UniProt P17612)	90
NEK4 (Homo sapiens, UniProt P51957)	84
MAP2K3 (Homo sapiens, UniProt P46734)	94

Excerpt of the above (study 1):
Compound	remaining activity
O=C1NC(=O)C(c2cn(CCCO)c3ncccc23)=C1c1cnccn1	37.5%
Cc1ccc(Nc2nccc(N(C)c3ccc4c(C)n(C)nc4c3)n2)cc1S(N)(=O)=O	30.3%
NCCNc1ncc(C(N)=O)c(Nc2cccc(C(F)(F)F)c2)n1	65.1%
OCC(O)CCON=C1C(c2c(O)[nH]c3ccccc23)=Nc2ccccc21 (stereo not shown)	15.5%
